# Measurements gathered from unrelated publications.
# Each numbered part is a random draw from the data of one study; scales do not carry over between parts. Substitutions count along the parent as printed.
# Chain of UniProt P78368 (whole entry, looked up): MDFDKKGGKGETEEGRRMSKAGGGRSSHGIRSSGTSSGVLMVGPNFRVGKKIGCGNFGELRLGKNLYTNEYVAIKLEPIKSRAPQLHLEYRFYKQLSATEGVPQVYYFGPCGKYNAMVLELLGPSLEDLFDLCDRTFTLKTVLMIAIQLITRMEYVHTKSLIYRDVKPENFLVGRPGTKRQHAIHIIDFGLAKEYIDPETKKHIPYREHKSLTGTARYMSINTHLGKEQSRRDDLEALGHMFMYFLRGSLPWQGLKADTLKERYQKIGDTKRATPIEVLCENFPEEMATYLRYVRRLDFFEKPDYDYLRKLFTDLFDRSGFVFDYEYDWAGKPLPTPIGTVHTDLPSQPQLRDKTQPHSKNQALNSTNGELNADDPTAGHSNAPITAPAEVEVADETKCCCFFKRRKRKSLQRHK
# Chain of UniProt P36896 (whole entry, looked up): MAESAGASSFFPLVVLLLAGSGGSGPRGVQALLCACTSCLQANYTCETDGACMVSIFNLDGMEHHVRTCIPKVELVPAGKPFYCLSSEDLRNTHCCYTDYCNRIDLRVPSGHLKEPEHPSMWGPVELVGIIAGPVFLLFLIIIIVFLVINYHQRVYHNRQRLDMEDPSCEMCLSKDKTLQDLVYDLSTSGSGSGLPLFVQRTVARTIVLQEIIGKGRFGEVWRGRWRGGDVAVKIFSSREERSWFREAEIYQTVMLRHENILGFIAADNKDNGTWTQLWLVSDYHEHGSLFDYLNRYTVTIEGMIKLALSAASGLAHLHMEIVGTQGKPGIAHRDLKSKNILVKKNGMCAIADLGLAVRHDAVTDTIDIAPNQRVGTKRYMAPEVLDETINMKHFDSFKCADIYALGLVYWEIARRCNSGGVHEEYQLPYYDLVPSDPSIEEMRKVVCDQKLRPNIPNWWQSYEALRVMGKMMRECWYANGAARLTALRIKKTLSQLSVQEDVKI
# Chain of UniProt P22607 (whole entry, looked up): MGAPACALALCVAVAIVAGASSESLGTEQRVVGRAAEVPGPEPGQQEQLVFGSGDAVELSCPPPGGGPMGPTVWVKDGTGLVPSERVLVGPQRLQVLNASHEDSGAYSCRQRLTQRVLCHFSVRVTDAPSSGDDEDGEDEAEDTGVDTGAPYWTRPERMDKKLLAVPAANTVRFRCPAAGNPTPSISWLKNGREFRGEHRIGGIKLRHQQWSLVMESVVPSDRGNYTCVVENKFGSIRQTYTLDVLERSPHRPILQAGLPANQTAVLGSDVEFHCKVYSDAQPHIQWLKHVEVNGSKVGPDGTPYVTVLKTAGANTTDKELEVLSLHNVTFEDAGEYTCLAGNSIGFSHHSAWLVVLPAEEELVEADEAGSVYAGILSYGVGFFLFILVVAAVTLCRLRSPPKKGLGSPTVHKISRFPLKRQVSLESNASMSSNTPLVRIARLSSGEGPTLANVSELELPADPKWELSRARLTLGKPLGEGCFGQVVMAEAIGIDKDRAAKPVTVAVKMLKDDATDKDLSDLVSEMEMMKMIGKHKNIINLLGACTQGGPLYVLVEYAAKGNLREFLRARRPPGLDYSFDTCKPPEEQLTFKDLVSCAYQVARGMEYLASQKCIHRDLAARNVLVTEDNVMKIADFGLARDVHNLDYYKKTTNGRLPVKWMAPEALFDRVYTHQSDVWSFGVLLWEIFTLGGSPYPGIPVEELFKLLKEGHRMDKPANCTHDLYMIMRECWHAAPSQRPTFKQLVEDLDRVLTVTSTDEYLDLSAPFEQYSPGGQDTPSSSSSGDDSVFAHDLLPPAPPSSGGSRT
# Chain of UniProt Q96PY6 (whole entry, looked up): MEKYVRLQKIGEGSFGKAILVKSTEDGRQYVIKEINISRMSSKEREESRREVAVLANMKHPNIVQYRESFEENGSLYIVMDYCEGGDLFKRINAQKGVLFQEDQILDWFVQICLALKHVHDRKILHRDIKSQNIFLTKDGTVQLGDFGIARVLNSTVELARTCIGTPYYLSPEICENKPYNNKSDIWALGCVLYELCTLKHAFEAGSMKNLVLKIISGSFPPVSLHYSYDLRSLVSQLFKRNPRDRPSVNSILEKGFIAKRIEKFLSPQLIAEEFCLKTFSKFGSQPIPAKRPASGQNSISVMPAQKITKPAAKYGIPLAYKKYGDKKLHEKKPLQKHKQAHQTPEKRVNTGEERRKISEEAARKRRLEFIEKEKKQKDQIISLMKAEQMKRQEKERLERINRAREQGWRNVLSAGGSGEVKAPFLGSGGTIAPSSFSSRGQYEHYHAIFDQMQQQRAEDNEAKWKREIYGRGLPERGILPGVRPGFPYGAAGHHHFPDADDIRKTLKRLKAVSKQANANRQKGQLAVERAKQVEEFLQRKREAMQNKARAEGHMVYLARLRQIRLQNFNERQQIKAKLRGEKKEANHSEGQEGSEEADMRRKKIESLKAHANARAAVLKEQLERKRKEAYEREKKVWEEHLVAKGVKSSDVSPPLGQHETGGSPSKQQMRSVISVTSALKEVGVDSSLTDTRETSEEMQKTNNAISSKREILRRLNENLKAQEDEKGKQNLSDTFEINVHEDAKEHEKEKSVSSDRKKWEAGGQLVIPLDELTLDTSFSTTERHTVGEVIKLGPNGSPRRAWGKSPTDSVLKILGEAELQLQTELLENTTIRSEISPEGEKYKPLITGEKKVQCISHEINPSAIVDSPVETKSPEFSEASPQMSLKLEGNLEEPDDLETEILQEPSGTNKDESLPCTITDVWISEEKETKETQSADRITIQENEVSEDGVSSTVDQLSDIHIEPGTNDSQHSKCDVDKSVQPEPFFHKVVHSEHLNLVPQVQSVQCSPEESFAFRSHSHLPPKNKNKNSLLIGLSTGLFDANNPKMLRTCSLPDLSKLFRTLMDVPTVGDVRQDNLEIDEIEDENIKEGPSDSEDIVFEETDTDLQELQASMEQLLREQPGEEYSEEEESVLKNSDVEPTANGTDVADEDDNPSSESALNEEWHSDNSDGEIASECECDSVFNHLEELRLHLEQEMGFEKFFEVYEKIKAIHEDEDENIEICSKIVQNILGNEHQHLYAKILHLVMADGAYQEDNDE
# Chain of UniProt P29320 (whole entry, looked up): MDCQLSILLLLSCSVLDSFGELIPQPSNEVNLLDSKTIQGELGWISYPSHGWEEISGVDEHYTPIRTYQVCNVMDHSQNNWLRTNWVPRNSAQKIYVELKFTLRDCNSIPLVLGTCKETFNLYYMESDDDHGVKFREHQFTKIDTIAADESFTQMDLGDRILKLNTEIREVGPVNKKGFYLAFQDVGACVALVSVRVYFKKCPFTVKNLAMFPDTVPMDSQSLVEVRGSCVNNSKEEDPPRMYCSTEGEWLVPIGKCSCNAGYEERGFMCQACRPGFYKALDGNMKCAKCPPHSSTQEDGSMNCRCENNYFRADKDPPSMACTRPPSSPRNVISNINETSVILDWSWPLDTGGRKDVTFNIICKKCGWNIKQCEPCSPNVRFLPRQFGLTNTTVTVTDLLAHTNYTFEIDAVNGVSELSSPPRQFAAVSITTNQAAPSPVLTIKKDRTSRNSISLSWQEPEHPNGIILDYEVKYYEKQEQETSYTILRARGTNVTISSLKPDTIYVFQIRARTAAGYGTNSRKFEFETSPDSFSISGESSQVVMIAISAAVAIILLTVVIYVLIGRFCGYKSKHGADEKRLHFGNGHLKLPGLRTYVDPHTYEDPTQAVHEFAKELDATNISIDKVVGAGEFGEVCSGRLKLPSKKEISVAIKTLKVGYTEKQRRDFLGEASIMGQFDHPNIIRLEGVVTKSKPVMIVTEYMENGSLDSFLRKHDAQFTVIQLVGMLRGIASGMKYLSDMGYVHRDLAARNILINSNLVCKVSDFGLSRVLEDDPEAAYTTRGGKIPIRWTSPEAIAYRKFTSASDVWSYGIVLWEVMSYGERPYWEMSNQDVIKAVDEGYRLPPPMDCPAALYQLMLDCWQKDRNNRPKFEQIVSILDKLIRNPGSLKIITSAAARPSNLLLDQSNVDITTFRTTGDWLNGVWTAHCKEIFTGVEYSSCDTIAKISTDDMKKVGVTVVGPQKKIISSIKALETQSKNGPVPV

# Sample 1
# Structure (SMILES): Oc1ccc(Nc2nc(-c3ccc(Cl)cc3)cs2)cc1
# Observed: enzyme activity
# Action: inhibitor
# Concentration: 0.5 µM
# Relative to: control
target,remaining activity [%]
"LCK (Homo sapiens, UniProt P06239)",99.8
"GRK7 (Homo sapiens, UniProt Q8WTQ7)",109
"JAK3 (Homo sapiens, UniProt P52333)",92.2
"FGFR1 (Homo sapiens, UniProt P11362)",82.5
"ABL2 (Homo sapiens, UniProt P42684)",93.4
"CSNK1G2 (Homo sapiens, UniProt P78368)",91.8
"FGFR3 (Homo sapiens, UniProt P22607)",96.5
"NEK1 (Homo sapiens, UniProt Q96PY6)",104
"TAOK2 (Homo sapiens, UniProt Q9UL54)",101
"MAP2K2 (Homo sapiens, UniProt P36507)",109
"ULK2 (Homo sapiens, UniProt Q8IYT8)",101
"MAP3K5 (Homo sapiens, UniProt Q99683)",108
"EPHA3 (Homo sapiens, UniProt P29320)",110
"ACVR1B (Homo sapiens, UniProt P36896)",89.5

# Sample 2
# Target: Hepatocyte nuclear factor 3-alpha (Foxa1, Mus musculus, UniProt P35582, residues 1-468, full length assumed)
# Chain of UniProt P35582 (whole entry, looked up): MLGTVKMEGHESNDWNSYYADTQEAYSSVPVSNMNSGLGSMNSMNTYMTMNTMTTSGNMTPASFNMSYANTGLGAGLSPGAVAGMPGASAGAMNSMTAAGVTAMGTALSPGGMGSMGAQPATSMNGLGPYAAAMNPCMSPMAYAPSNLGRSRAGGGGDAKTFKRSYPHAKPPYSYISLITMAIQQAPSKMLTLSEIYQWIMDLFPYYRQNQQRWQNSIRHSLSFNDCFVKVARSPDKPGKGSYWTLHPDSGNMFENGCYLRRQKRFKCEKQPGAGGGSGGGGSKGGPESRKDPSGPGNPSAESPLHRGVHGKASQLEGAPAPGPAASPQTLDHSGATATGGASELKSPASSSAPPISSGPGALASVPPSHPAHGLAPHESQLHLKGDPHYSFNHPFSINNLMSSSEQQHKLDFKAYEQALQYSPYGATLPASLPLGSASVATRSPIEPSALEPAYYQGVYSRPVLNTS
# Method: EMSA with sequencing
# Form: double-stranded DNA, one strand shown
# Sample: in vitro
# Concentration: 10 and 20 nM
# Notes: whole designed probe, mean of two concentrations, ends assumed
# Relative to: negative control set to 0
# Reading: higher = stronger binding
# All sequences stand within: GTGAGCGGTGCCCATTGATGGGGAAC … TTTCACTGGGATCGTGGGGAC
Strand,normalised bound fraction [ratio]
CTTCAGAGGGCAGAACCCTCCCTGGGGACGCACCTGCCTCAGGCGCGGCCTGTGCATTCCTGCCTGGAGACAGGAGCTACCAGTCCCCGGCGCTGTTTACCTTCCGTCTGGCGGCCCAGCAGAGAGCCACCGCCCTCCCCTCTCCTGGCCTATATATAAGGCCTTGTCCTGGCTTTGCCCTGGGCGGGGACGC,0.126
ATCTTCCCCCTCTTCCTTGCCCCACCAGCTCACCTTCCCGGGTATATTGGAGATAGGAAATTAATATAAGCCGGCATTCGTTAACCCTCTTCACGCGCATACTGCACATTGGTCTGGATGAATCATGGTCCTTTGGCGACGCCAGGCTCCGGGAGAGCAAAGCACCGTGTCAGGGCCATGATCCGGGGTGGCC,0.0205
GTGCTTCTAACTAGGTTAGGATACCCTGTTCTCATATATGAACTCTGCAAGAATGAGTACAATTTTCAGGAATGAGAGGGCAGGAGGGGGGAGTTATTTACATTAGCATTTGCCAAGTTTTCACTGTTTATCTTACCGGAAAGTCAACAGTGTGACTATTAACCTCCTGCATAATTAAAATTTGGGCCTTGTT,0.447
AAGACAAATAAGAAAGATATTTCCTCCCCTACATTATCTGGATTTCTCCATGAAACACCCATTATGGCATAGACAAATTGGTTACTATCTTAAGTAAACATTGGTAGGAAAACTTTGAAAAGGCAACTGAGCTTACTTTTGGGTCATGTGTCACCTGTCAAAAATATAACTCTGGAAAAACTGTAAAGTTGGG,0.5
TCTAAGTGCTTACCGGGTAACTGGAGGCCACTTGGTTGCTGGTTTTGGCTGGGCCTTTCTGGACTTTACCCCTCAGCCCCTGTTTATCCATCCCTGTTTACTCTTACTGTTCTATCTCCAGCACTGCCCGTCTCTGCCTCTCTCCACTGTCCCTGGAGCTCCCTGGGCCCTTCCCTGGGCCTCAGGACCTCAC,0.14
CCTCTGATTTCTATAGCATGTTGTTAGTCCCTATATTTAACACATTGTTTCAGCCCTGTAGTATATTGAGCTACTGTTTTCCCTGCCCCATATGTCAACATATTTAATAACTAGCATTTGTGGGGTTTATATTTTTCCAAATTATTTCAAATGTTTATTGATTTTACTCTTCACAGCATAAATATAAAGTGAA,0.37
ACTCAAATTCTATTTTGACTGTTGAGAATCAAATACATCTTTAATGGGTTAATGTTGGCAATAATCGAAAGTGTTTTAGCTAACATTCATGTGTAAACAAGGACAAACATTGGCAAATGTGATAATTACTACATAAGTTGTAAATTCATATGGAAAATGCATTTACTAATTCAGTCAGGGATAGGCTGTGATG,0.353
AGGTGAATTGGCTGCTTCCATCCTGGCTTGGAACTTCAGACATAGAAGCCTTGGGACTTTCTCAGGACTTTCTCCAGATCTGTCACATGCTCAGCAAACAAGCATCTCTGTGGATCACGTGACCTTAGCCAGGGATGTTGGTGAAACTGTGTGTTGGTCTAGGTACCTAGCCCATGCTAGGTGCTCATCGAAT,0.0921

# Sample 3
# Target: CREB3, bZIP domain (human)
# Method: DHFR protein complementation
# Sample: yeast
# Notes: single substitutions, most at no-binding floor
# Relative to: wild-type JUN-FOS pair
# Reading: higher = stronger binding
# Parent: JUN, bZIP domain (human); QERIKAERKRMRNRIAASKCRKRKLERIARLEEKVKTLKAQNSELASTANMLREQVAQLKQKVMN; partner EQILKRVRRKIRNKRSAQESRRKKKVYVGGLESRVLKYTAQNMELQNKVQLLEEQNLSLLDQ
Change,binding fitness [natural log]
T37L,-1.47
K39H,-1.48
K36F,-1.47
N42G,-1.5
A40G,-1.47
N42Q,-1.44
S43C,-1.57
T48Q,-1.44

# Sample 4
# Target: Translocator protein (Tspo, Rattus norvegicus, UniProt P16257)
# Chain of UniProt P16257 (whole entry, looked up): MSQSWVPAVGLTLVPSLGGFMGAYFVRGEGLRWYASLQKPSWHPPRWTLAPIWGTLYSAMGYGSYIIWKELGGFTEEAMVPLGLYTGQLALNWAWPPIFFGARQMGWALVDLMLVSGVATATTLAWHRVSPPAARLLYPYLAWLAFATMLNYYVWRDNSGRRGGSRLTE
# Observed: radioligand binding
# Method: radioligand displacement
# Concentration: 10 µM
Structure (SMILES),inhibition [%]
N#CN1CC[C@@H](C(=O)Nc2nc3c(s2)CN(C(=O)CN=[N+]=[N-])CC3)C1,5.64
Cn1c(-c2csc(C3CCN(Cc4nc5ncccc5[nH]4)CC3)n2)nc2ccccc21,13.7
Nc1c(C(=O)NCc2ccc(C(=O)NCCCC3CCCCC3)cc2)cnn1-c1ccccc1,27.6
O=C(NS(=O)(=O)c1ccc(NCC2CCOCC2)c([N+](=O)[O-])c1)c1ccc(N2CCN(Cc3ccc(C(F)(F)F)cc3-c3ccc(Cl)cc3)CC2)cc1Oc1cnc2[nH]ccc2c1,11.6
O=C(N1CCS(=O)(=O)CC1)N1C[C@H](c2ccc(OC(F)(F)F)cc2)C[C@H](c2nc(C3CC3)no2)C1,14.9
CCS(=O)(=O)c1cc2cc(C[C@@](O)(CC(C)(C)c3ccc(F)cc3C(N)=O)C(F)(F)F)[nH]c2cn1,-25.6
CO[C@@H](C)c1c(Nc2ccc([C@@H](N(C)C(=O)C3CCS(=O)(=O)CC3)C(F)(F)F)cc2)cnc2cc(Cl)nn12,5.14
